{"data": "Experimental data collected from several papers", "cell line": "A549", "note": "± marks the error that the study gave."}
{"SMILES": "CC(=NNC(N)=S)C(C)=NNC(N)=S", "read-out": "cell viability", "technique": "MTT", "time": "24 h hypoxic, 48 h normoxic", "notes": "hypoxic treatment", "IC50 [µM]": "17.5 ± 2.7"}
{"SMILES": "COc1ccccc1/C=C/c1nc2ccc([N+](=O)[O-])cc2nc1/C=C/c1ccccc1OC", "read-out": "cell growth or viability", "technique": "MTT", "time": "72 h", "IC50 [µM]": "> 100"}
{"SMILES": "CCOC(=O)c1[nH]c(N)nc1-c1cccc(NC(=O)c2cc3cc(F)ccc3[nH]2)c1", "read-out": "cell growth or viability", "technique": "resazurin", "time": "72 h", "IC50 [µM]": 18.6}
{"SMILES": "CC(C=NN=C(N)[S-])=NN=C(N)[S-].NCc1ccccc1.NCc1ccccc1.O=[N+]([O-])[O-].[Co+3]", "read-out": "cell viability", "technique": "MTT", "time": "24 h then 48 h recovery", "notes": "normoxia", "IC50 [µM]": "~7.1"}
{"SMILES": "Cc1ccc(NC(=O)c2ccc3c(c2)CC[C@@H]3N2CCN(C)CC2)cc1C#Cc1cnc2ccc(Cl)nn12", "read-out": "cell growth or viability", "time": "72 h", "IC50 [µM]": "1 to 10"}
{"SMILES": "CC(C=NNC(N)=S)=NNC(N)=S", "read-out": "cell viability", "technique": "MTT", "time": "24 h then 48 h recovery", "notes": "normoxia", "IC50 [µM]": "0.06 ± 0.03"}
{"SMILES": "Cc1cc(C)c(C2CN(C)C3(C(=O)Nc4ccccc43)C2C(=O)c2ccccc2)c(C)c1 (stereo not shown)", "read-out": "cell growth or viability", "technique": "MTT", "time": "24 h", "IC50 [µM]": 6.6}
{"SMILES": "CCC(O)CC(=O)O[C@@H]1C[C@@H]2[C@@]3(C)CCC[C@](C)(CC)[C@@H]3CC[C@@]2(C)[C@@H]2C[C@@H](O)C3=C(C(=O)O[C@@H]3C)[C@@]12C (stereo partly shown)", "read-out": "cell growth or viability", "technique": "CCK-8", "time": "24 h", "IC50 [µM]": "≤ 25"}
{"SMILES": "CN1CCC2(CC1)C/C(=N\\N=C\\c1ccc(N(C)C)cc1)c1ccccc1O2", "read-out": "cell growth or viability", "technique": "MTT", "time": "48 h", "IC50 [µM]": 42.5}
{"SMILES": "Nc1nc(-c2cc(NC(=O)c3cc4cc(Br)ccc4[nH]3)ccc2Cl)c(C(=O)c2ccccc2)[nH]1", "read-out": "cell growth or viability", "technique": "resazurin", "time": "72 h", "IC50 [µM]": 20.3}
{"SMILES": "O=c1[nH]cc(F)c(=O)[nH]1", "read-out": "cell growth or viability", "technique": "MTT", "time": "72 h", "IC50 [µM]": 4.89}
{"SMILES": "Cc1cc(C)c(C2C3CCCN3C3(C(=O)Nc4ccccc43)C2C(=O)c2cccc(Cl)c2)c(C)c1 (stereo not shown)", "read-out": "cell growth or viability", "technique": "MTT", "time": "48 h", "IC50 [µM]": 1.2}
{"SMILES": "C/C(=N/NC(=O)c1cn(-c2ccccc2)nc1-c1ccccc1)c1c(O)cc(C)oc1=O", "read-out": "cell growth or viability", "technique": "MTT", "time": "48 h", "IC50 [µM]": 146}
{"SMILES": "Nc1nc(-c2cccc(NC(=O)c3cc4cc(Cl)ccc4[nH]3)c2)c(C(=O)c2ccccc2)[nH]1", "read-out": "cell growth or viability", "technique": "resazurin", "time": "72 h", "IC50 [µM]": 15}
{"SMILES": "CC(=O)[O][Pt]([NH2])([Cl])([Cl])([NH]C1CCCCC1)[O]C(C)=O", "read-out": "cell viability", "technique": "MTT", "time": "96 h", "IC50 [µM]": "6.4 ± 0.4"}
{"SMILES": "Clc1ccc(/C=C/c2nc3ccc(Br)cc3nc2/C=C/c2ccc(Cl)cc2)cc1", "read-out": "cell growth or viability", "technique": "MTT", "time": "72 h", "IC50 [µM]": "> 100"}
{"SMILES": "CCOC(=O)c1[nH]c(N)nc1-c1cccc(NC(=O)c2cc3ccccc3[nH]2)c1", "read-out": "cell growth or viability", "technique": "resazurin", "time": "72 h", "IC50 [µM]": 34.6}
{"SMILES": "CCn1[c](=[Au-2]([Cl])([Cl])[Cl])n(CC)c2ccccc21", "read-out": "cell growth or viability", "technique": "crystal violet", "time": "72 h", "IC50 [µM]": 11.6}
{"SMILES": "NCCN.O=C1[O][Pt]2([O]C(=O)C13CCC3)[O]C(=O)C1(CCC1)C(=O)[O]2", "read-out": "cell viability", "technique": "MTT", "time": "96 h", "IC50 [µM]": "> 640"}
{"SMILES": "N.N.O=C([O-])C1(C(=O)[O-])CCC1.[Pt+2]", "read-out": "cell viability", "technique": "MTT", "time": "4 h", "IC50 [µM]": "190 ± 18.6"}
{"SMILES": "Cc1cccc(C(=O)C2C(c3c(C)cc(C)cc3C)C3CCCN3C23C(=O)Nc2ccccc23)c1 (stereo not shown)", "read-out": "cell growth or viability", "technique": "MTT", "time": "24 h", "IC50 [µM]": 11.1}
{"SMILES": "O=[N+]([O-])c1cccc(/C=C/c2nc3ccc(Br)cc3nc2/C=C/c2cccc([N+](=O)[O-])c2)c1", "read-out": "cell growth or viability", "technique": "MTT", "time": "72 h", "IC50 [µM]": "> 100"}
{"SMILES": "C=CC1=C(C)c2cc3[nH]c(cc4nc(cc5[nH]c(cc1n2)c(C)c5CCC(=O)O)C(CCC(=O)O)=C4C)c(C)c3C=C", "read-out": "cytotoxicity", "technique": "resazurin", "time": "4 h incubation", "notes": "dark", "IC50 [µM]": "> 100"}
{"SMILES": "Cc1cccc(C(=O)C2C(c3c(C)cc(C)cc3C)CN(C)C23C(=O)Nc2ccccc23)c1 (stereo not shown)", "read-out": "cell growth or viability", "technique": "MTT", "time": "24 h", "IC50 [µM]": 9.4}
{"SMILES": "O=[N+]([O-])c1ccc(-n2nc(-c3cccs3)sc2=NN=C2CCCC2)cc1", "read-out": "cell growth or viability", "IC50 [µM]": 68.5}
{"SMILES": "O=[N+]([O-])c1ccc2nc(/C=C/c3ccco3)c(/C=C/c3ccco3)nc2c1", "read-out": "cell growth or viability", "technique": "MTT", "time": "72 h", "IC50 [µM]": "> 100"}
{"SMILES": "O=C(Nc1cc2ccccc2cc1C(=O)O)c1ccccc1", "read-out": "cytotoxicity", "technique": "MTT", "added": "visible light, BSA 0.6 mM", "IC50 [µM]": "> 100"}
{"SMILES": "O=[N+]([O-])c1ccc2nc(/C=C/c3ccc(F)cc3)c(/C=C/c3ccc(F)cc3)nc2c1", "read-out": "cell growth or viability", "technique": "MTT", "time": "72 h", "IC50 [µM]": "> 100"}
{"SMILES": "Cc1cc(C)c(C2C3CCCN3C3(C(=O)Nc4ccccc43)C2C(=O)c2ccc(Cl)cc2)c(C)c1 (stereo not shown)", "read-out": "cell growth or viability", "technique": "MTT", "time": "24 h", "IC50 [µM]": 12.9}
{"SMILES": "Cc1ccc(NC(=O)Cn2cc(COc3ncnc4[nH]cnc34)nn2)c(C)c1", "read-out": "cell growth or viability", "technique": "MTT", "IC50 [µM]": 12.3}
{"SMILES": "CC(=NN=C(N)[S-])C(C)=NN=C(N)[S-].N.N.O=[N+]([O-])[O-].[Co+3]", "read-out": "cell viability", "technique": "MTT", "time": "24 h then 48 h recovery", "notes": "normoxia", "IC50 [µM]": "> 500"}
{"SMILES": "O=[N+]([O-])c1ccc2nc(/C=C/c3ccc(Br)cc3)c(/C=C/c3ccc(Br)cc3)nc2c1", "read-out": "cell growth or viability", "technique": "MTT", "time": "72 h", "IC50 [µM]": "> 100"}
{"SMILES": "COc1cccc2c1C(=O)c1c(O)c3c(c(O)c1C2=O)C[C@@](O)(C(=O)CO)C[C@@H]3O[C@H]1C[C@H](N)[C@H](O)[C@H](C)O1", "read-out": "cell growth or viability", "technique": "MTT", "IC50 [µM]": 5.86}
{"SMILES": "Cc1cc(C)c(C2CN(C)C3(C(=O)Nc4ccccc43)C2C(=O)c2ccc(Cl)cc2)c(C)c1 (stereo not shown)", "read-out": "cell growth or viability", "technique": "MTT", "time": "48 h", "IC50 [µM]": 10.3}
{"SMILES": "COc1ccccc1/C=C/c1nc2ccc(Br)cc2nc1/C=C/c1ccccc1OC", "read-out": "cell growth or viability", "technique": "MTT", "time": "72 h", "IC50 [µM]": 35.2}
{"SMILES": "Cc1ccc(C(=O)C2C(c3c(C)cc(C)cc3C)C3CCCN3C23C(=O)Nc2ccccc23)cc1 (stereo not shown)", "read-out": "cell growth or viability", "technique": "MTT", "time": "48 h", "IC50 [µM]": 3.48}
{"SMILES": "O=[N+]([O-])c1ccc(-n2nc(-c3cccs3)sc2=NN=C2CCCc3ccccc32)cc1", "read-out": "cell growth or viability", "IC50 [µM]": 48.1}
{"SMILES": "Cc1cc(C)c(C2C3CCCN3C3(C(=O)Nc4ccccc43)C2C(=O)c2ccc(Br)cc2)c(C)c1 (stereo not shown)", "read-out": "cell growth or viability", "technique": "MTT", "time": "48 h", "IC50 [µM]": 13.5}
{"SMILES": "COc1ccc(/C=C\\c2cc(OC)c(OC)c(OC)c2)cc1O", "IC50 [µM]": "0.28 ± 0.05"}
{"SMILES": "C=CCc1ccc(O)c(-c2ccc(O)c(CC=C)c2)c1", "read-out": "cell proliferation", "technique": "MTS", "time": "24 h", "added": "temozolomide 250 µM", "IC50 [µM]": 12.6}
{"note": "Some of these lines once more:"}
{"SMILES": "O=[N+]([O-])c1ccc(-n2nc(-c3cccs3)sc2=NN=C2CCCC2)cc1", "read-out": "cell growth or viability", "IC50 [µM]": 68.5}
{"SMILES": "O=[N+]([O-])c1ccc2nc(/C=C/c3ccco3)c(/C=C/c3ccco3)nc2c1", "read-out": "cell growth or viability", "technique": "MTT", "time": "72 h", "IC50 [µM]": "> 100"}
{"SMILES": "O=C(Nc1cc2ccccc2cc1C(=O)O)c1ccccc1", "read-out": "cytotoxicity", "technique": "MTT", "added": "visible light, BSA 0.6 mM", "IC50 [µM]": "> 100"}
